Experimental data from different studies.
Each numbered part is a random draw from the data of one study; scales do not carry over between parts.
Chain of UniProt O00444 (whole entry, looked up): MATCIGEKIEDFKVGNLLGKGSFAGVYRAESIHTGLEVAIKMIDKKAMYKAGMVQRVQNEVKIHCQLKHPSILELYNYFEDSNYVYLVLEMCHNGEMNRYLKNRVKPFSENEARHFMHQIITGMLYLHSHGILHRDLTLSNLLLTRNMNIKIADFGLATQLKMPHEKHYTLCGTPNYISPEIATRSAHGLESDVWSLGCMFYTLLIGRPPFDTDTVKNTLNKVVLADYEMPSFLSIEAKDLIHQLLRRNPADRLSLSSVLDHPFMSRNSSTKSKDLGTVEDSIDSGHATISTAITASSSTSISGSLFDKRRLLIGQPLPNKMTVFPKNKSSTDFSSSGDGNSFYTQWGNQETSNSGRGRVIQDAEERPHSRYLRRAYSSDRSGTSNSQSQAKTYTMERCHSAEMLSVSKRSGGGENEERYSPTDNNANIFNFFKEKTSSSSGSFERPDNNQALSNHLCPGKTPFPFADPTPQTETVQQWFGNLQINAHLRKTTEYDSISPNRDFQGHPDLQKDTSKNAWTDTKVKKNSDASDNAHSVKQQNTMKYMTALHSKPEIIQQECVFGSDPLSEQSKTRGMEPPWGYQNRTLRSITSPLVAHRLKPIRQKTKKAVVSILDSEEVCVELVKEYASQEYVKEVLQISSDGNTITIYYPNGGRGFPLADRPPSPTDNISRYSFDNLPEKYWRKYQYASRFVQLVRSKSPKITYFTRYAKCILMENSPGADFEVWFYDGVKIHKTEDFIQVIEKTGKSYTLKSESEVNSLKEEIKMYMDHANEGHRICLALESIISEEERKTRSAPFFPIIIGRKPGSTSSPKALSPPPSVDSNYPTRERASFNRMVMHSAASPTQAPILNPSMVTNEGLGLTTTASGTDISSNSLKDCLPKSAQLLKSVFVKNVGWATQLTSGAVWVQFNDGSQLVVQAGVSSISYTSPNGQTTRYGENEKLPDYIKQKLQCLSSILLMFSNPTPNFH

Study 1
Target: Interferon regulatory factor 3, full length, phosphomimetic (IRF3, Homo sapiens, UniProt Q14653, residues 1-427, S386D/S396D/S398D/S402D/T404D/S405D)
Method: protein-binding microarray
Molecule type: double-stranded DNA, one strand shown
Medium: in vitro
Tested at: 2540 nM top
Setting: 60-bp whole probe
Added: salmon DNA 0.4 mg/ml
Reference: random background probes
Reading: higher = stronger binding
Quantity: fitted relative affinity
Shared flanks, not repeated: GCCTAGCAC … GTCTTGATTCGCTTGACGCTGCTG
Construct (chain): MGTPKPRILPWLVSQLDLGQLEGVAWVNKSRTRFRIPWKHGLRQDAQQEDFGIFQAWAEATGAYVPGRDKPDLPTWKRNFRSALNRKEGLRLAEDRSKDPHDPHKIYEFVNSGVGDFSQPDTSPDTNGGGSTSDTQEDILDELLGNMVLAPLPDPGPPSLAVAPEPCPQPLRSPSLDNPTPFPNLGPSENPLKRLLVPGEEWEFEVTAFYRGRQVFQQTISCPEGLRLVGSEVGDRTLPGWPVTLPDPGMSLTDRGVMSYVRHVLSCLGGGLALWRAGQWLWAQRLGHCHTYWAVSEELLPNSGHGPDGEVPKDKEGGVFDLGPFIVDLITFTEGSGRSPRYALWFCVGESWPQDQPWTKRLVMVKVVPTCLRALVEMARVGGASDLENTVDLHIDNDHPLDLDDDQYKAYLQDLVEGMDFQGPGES
GACGGACTGGGTCCCGGGACGTGCTAG: -0.88 z-score
TGCTTTTTAGAAATTTTTTTTGTGCTA: 0.227 z-score
GACGGTATCCTATTGCTGACGTGCTAG: 3.84 z-score
GACGATACCAGACTGGAGACGTGCTAG: 0.218 z-score
GACGATATCAGACTGGAAACGTGCTAG: 0.513 z-score
ATTTTTTTCATTATTGTTTCGTGCTAG: 1.77 z-score
TCATTTCTAATATTCTGACTGTGCTAG: 2.19 z-score
TTAGATTTCAGTTTCGATGAGTGCTAG: 4.95 z-score

Study 2
Target: Centromere-binding protein 1, full length, His-tagged (CBF1, Saccharomyces cerevisiae, UniProt P17106, residues 1-351)
Chain of UniProt P17106 (whole entry, looked up): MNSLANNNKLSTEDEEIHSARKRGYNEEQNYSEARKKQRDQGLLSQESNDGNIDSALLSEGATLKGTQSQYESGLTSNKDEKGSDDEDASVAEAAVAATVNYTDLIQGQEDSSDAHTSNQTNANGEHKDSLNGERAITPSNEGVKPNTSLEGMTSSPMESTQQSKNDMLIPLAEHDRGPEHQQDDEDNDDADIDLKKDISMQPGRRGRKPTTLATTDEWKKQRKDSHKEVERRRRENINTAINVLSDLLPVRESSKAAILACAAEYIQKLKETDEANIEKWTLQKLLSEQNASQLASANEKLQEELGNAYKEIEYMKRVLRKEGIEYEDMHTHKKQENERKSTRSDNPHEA
Method: competition protein-binding microarray
Molecule type: double-stranded DNA, one strand shown
Medium: in vitro
Tested at: 2 µM
Setting: whole 60-bp probe, lowest competitor level
Added: Pho4 competitor, 0.05 µM
Reading: higher = stronger binding
Quantity: fluorescence intensity
GTCTTGTCTCATTGAGGTGTGGGTGTCCCCACTTCAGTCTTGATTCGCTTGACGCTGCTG: 80.6 a.u.
CCGGACACTAGGAAACACGCACAAAATTCTCAGGCAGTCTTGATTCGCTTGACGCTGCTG: 75 a.u.
GCTTTCAGGCACTAAGACGTGCAAAGATATAAGCCAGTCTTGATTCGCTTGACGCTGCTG: 63.7 a.u.
CGTCCTAGTGATTGCCTTGTGGGTGCCATGAGGAAGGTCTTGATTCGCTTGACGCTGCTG: 72.2 a.u.
CTTCTGTAAATTTGGTGGGTGGGTGGACGCGCCCCGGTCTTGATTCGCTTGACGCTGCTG: 104 a.u.
GTCTTGTCTCATTGACATGTGGGTGTCCCCACTTCAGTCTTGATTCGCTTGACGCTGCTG: 100 a.u.
CTAACGAAGGTTTGGCATGTGGGTGACAAGCCAAGTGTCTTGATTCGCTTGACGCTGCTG: 81.6 a.u.
AAACCAAGGGAAGAAAACGTGAATACGGAGAAACTTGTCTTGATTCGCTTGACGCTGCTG: 130 a.u.

Mixed results
CN(C)C(=O)Cn1cc(-c2nc([C@@](C)(c3ccc(-c4cnc(N)nc4)cc3)C3CC3)no2)cn1 — remaining binding (Serine/threonine-protein kinase PLK4 (PLK4, Homo sapiens, UniProt O00444); cell-free assay, competition with immobilised ligand; 1 µM): 74%
HSPA5 (Homo sapiens, UniProt P11021) — cross-linked residues (CEP112 (Homo sapiens, UniProt Q8N8E3); cross-linking MS; cells; added: BSPNO): K138 to K528

For quick reference, copied from above (study 2):
GTCTTGTCTCATTGAGGTGTGGGTGTCCCCACTTCAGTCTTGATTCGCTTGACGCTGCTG: 80.6 a.u.
CCGGACACTAGGAAACACGCACAAAATTCTCAGGCAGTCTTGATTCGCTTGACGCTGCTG: 75 a.u.
